Published values from different studies.
Every numbered part comes from another study and shows a few of its results, in no order.
UniProt Q8N568, sequence (whole entry, looked up): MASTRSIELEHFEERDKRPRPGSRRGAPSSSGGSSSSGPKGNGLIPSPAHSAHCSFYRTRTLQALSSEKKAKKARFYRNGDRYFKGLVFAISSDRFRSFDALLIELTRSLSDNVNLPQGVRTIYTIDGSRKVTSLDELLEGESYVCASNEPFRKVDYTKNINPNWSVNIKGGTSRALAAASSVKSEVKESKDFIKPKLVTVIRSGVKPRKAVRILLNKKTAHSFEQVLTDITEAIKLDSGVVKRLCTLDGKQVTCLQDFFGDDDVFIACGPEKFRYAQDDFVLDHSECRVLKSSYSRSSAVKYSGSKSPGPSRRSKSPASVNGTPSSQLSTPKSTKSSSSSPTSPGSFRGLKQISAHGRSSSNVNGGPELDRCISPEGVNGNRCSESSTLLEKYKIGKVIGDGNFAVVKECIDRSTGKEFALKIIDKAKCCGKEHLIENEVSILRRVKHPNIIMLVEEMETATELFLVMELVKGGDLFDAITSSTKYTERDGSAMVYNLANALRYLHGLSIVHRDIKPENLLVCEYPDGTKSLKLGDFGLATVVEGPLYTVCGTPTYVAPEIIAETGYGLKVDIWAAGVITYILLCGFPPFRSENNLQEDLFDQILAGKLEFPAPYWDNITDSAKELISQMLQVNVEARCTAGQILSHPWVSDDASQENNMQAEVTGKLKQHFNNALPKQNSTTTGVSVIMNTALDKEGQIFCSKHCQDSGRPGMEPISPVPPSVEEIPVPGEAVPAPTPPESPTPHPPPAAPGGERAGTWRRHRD
UniProt P35968, sequence (whole entry, looked up): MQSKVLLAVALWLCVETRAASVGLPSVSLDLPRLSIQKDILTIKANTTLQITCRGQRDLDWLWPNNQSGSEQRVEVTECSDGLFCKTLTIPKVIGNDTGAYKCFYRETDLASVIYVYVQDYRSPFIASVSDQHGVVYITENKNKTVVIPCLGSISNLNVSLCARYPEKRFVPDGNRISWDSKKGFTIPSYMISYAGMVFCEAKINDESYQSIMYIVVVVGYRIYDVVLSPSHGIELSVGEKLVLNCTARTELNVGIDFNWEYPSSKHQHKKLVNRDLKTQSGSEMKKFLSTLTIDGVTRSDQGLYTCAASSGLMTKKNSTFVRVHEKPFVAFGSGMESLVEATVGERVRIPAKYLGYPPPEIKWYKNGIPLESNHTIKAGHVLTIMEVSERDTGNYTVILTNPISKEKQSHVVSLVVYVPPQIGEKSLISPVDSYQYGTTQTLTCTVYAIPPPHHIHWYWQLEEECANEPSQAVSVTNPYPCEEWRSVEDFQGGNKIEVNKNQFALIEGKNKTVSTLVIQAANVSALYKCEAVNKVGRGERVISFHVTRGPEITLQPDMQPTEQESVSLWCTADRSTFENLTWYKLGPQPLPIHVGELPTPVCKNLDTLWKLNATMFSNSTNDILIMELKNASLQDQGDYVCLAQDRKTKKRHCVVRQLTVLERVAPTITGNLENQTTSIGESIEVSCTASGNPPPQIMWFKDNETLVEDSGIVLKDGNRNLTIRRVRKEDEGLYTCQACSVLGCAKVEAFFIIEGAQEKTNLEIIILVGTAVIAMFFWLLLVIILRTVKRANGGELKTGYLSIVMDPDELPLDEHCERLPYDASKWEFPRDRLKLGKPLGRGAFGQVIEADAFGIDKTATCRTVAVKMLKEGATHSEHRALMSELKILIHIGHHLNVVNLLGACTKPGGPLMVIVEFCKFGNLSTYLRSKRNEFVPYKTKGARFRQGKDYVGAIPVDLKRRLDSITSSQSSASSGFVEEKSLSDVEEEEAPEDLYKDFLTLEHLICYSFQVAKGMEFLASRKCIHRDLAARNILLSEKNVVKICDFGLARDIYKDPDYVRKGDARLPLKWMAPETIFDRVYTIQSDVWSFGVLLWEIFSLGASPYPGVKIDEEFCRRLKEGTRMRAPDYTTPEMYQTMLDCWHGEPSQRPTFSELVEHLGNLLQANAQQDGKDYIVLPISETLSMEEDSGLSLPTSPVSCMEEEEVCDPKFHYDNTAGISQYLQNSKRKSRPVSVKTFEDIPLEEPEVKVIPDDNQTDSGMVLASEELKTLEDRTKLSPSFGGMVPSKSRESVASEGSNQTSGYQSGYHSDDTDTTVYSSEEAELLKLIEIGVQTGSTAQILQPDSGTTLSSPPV
UniProt Q9Y5S2, sequence (whole entry, looked up): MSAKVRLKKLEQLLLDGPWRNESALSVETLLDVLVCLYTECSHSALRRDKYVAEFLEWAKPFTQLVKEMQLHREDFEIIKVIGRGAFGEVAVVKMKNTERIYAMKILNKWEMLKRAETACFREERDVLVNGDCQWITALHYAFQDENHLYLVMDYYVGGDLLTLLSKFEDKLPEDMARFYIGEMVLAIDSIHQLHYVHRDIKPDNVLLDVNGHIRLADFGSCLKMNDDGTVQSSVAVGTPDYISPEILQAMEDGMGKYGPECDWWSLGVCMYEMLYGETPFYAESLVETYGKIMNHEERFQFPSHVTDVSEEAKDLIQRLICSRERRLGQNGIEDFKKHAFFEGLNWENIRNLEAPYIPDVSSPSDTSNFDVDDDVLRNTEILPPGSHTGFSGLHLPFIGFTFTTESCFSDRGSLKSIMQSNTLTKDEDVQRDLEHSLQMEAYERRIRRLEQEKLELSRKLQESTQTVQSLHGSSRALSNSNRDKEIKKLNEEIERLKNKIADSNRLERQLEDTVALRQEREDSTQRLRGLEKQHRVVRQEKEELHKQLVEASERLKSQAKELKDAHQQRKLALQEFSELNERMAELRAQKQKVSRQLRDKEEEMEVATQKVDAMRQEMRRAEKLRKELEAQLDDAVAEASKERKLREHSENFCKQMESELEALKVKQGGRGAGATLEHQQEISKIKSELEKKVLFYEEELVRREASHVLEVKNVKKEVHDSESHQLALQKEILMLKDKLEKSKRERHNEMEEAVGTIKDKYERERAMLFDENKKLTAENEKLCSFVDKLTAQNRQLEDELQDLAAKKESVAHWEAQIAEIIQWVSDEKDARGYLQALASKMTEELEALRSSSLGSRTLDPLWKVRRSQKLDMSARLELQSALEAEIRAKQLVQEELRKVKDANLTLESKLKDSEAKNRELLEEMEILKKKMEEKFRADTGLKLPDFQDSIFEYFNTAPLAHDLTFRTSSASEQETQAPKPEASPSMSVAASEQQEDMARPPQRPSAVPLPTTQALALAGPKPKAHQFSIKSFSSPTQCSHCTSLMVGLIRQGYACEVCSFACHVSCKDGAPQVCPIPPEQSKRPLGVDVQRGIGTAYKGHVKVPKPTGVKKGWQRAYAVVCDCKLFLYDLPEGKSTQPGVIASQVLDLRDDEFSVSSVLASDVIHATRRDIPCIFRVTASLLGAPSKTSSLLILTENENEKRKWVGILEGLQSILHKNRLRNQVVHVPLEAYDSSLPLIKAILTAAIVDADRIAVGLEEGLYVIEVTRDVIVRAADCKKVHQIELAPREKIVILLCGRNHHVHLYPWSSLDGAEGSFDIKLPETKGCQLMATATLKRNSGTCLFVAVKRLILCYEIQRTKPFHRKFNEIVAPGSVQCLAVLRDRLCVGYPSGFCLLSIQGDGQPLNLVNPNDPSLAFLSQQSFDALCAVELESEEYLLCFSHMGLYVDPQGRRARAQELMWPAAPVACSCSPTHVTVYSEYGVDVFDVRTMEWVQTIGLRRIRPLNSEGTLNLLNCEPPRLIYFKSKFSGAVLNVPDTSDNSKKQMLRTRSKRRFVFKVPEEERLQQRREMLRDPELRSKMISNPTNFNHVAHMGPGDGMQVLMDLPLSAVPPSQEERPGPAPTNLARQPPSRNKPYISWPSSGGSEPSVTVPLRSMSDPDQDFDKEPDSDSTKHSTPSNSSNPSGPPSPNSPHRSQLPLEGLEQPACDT
UniProt Q9UK32, sequence (whole entry, looked up): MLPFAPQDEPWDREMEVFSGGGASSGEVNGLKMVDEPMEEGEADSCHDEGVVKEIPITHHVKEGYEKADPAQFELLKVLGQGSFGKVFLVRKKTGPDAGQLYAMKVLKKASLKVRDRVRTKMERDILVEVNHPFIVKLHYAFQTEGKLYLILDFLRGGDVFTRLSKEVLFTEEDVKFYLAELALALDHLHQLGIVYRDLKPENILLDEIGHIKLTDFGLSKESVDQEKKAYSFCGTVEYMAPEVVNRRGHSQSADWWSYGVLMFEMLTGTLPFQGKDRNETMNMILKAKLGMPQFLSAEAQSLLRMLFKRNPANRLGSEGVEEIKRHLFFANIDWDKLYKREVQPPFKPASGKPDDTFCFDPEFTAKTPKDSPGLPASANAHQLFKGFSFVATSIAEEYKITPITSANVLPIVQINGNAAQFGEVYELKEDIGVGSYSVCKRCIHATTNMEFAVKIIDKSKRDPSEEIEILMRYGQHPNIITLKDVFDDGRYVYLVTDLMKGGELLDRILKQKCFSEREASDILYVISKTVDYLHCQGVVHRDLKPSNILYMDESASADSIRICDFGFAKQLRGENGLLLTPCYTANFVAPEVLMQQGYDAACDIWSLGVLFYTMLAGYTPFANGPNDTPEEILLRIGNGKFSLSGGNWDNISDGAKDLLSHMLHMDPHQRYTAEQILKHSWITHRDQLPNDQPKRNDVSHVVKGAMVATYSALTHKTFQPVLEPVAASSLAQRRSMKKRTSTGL

Block 1
SMILES: O=C1CCc2cc(Nc3cc(OC4CCOCC4)c([N+](=O)[O-])cc3Cl)ccc2N1
Observed: cell-free assay
Method: competition with immobilised ligand
Concentration: 1 µM
Measurement: remaining binding
Epidermal growth factor receptor (EGFR, Homo sapiens, UniProt P00533, del746-750): 100%
Ribosomal protein S6 kinase alpha-6, C-terminal kinase domain (RPS6KA6, Homo sapiens, UniProt Q9UK32): 91%
Ribosomal protein S6 kinase alpha-2, N-terminal kinase domain (RPS6KA2, Homo sapiens, UniProt Q15349): 100%
Dual specificity protein kinase TTK (TTK, Homo sapiens, UniProt P33981): 87%

Block 2
Target: Centromere-binding protein 1, full length, His-tagged (CBF1, Saccharomyces cerevisiae, UniProt P17106, residues 1-351)
UniProt P17106, sequence (whole entry, looked up): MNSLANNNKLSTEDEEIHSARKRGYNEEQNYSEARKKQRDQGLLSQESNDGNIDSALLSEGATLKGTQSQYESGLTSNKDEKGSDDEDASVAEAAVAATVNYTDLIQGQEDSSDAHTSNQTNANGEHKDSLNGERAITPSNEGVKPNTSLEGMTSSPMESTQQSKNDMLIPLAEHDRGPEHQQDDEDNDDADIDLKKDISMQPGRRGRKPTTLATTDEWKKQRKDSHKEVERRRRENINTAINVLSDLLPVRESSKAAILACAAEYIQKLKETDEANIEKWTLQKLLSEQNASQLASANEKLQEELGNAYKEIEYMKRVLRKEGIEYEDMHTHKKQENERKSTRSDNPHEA
Method: competition protein-binding microarray
Form: double-stranded DNA, one strand shown
Matrix: in vitro
Concentration: 2 µM
Setting: whole 60-bp probe, lowest competitor level
With: Pho4 competitor, 0.05 µM
Reading: higher = stronger binding
Measurement: fluorescence intensity
All sequences stand within: … GTCTTGATTCGCTTGACGCTGCTG
ATTGAGATAAAAATAAACGTGGTTACTCCCGAGGCA: 130 a.u.
CTTCTGTAAATTTGCAGAGTGGGTGGACGCGCCCCG: 66.1 a.u.
CGGGGTTAAGTTTGCCTGGTGGGTGGCTTGCAGCAG: 61 a.u.
TGAGGGTGAGTATGGCATGTGGTGGTGGGATTGGAG: 84.5 a.u.
TTCAACGCTTTGAAACACGTGACGAAGATGCGGGTC: 6590 a.u.
ACAACAAACAAAGGCAACGTGCAAAAAACAACCATC: 155 a.u.
AAAGCGGTAATTTGCGGCGTGGGTGCAGATATCTAT: 82.3 a.u.
CTTTCCCGATCTTAGCACGTGTTTTTAGCACATTTG: 2180 a.u.

Block 3
Target: RING finger protein unkempt homolog, zinc fingers 1-6, GST-SBP tag (UNK, Homo sapiens, UniProt Q9C0B0, residues 30-357)
Method: RNA Bind-n-Seq
Form: RNA
Matrix: in vitro
Concentration: not given
Setting: RNA with constant flanks, human and mouse sites, ends assumed
Reference: input RNA pool
Reading: higher = stronger binding
Measurement: bound/input enrichment
All sequences stand within: GGGAGUUCUACAGUCCGACGAUC … CAACAGAGGAUUGAGCAUCA
Construct (chain): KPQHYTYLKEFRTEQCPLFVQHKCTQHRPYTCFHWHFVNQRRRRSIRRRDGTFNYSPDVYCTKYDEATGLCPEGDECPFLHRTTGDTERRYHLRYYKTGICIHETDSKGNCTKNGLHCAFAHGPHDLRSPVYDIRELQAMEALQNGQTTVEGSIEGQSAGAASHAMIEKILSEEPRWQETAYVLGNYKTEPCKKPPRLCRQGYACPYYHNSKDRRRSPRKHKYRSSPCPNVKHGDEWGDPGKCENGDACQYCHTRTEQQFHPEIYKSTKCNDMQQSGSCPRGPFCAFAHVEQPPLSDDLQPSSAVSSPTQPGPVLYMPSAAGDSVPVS
AUACUCUUUAUAUGCUCUGGCUCAAUCAUUCAUAGCCUGGCAGACGAACAAGACAUCCGAAAAAUAGGAAACAUCACAAAAAUCAUACCAUUCACAUCAUCAUGCCUAGUAAUCGGAAGC: 0.647 ratio
UUACAGUACCUUUACCAGCAUCGCAGCUUUCCUUGCCUAAUUUUGGAUCUACAGGGCAACCUCUAAUUGCUUUGCCUCAGACUCUUCAGCCCCCAUUACAGCAUACCACUCCCCAAGCAC: 0.424 ratio
GAGCCAGAGGAAGAAGAAGAGGAGAAGGAAGGGAAUGCCACUGUGAGUUUCUCACAGGCCCUAGUAGAGUUCACCAGCAAUGGAAACCUUUUUACCAGCAUGUCCUACAGCUCUGAUUCU: 0.216 ratio
CUGAAAGAAAUUCAAGCCAUGAGCCAAUGCAGCCAUCCCAACGUAGUGACUUAUUACACCUCCUUUGUGGUCAAAGAUGAGCUGUGGCUGGUCAUGAAAUUACUAAGUGGAGGUUCCAUG: 0.287 ratio
UCAUGACCAUCGCCCUGGCCUUGCUGGAACGGCUGCCUUGGAUGUCCUAUCUGAGCAUCGUGGCCAUCUUUGGCUUUGUGGCCUUCUUUGAAGUAGGCCCUGGUCCUAUUCCAUGGUUCA: 0.0745 ratio
UAUAUCACCAAUGUCCUACAAAAUCCUGACUUGGCUCUGAGAAUGGCUGUGCGGAACAACUUAGCUGGUGCUGAAGAACUCUUUGCCCGGAAAUUUAAUGCUCUCUUCGCCCAGGGAAAC: 0.407 ratio
UUACUCUAACCUGUUGUCCUCCACAUUCUAUUGUCCUAAUUGUACUGUUUUCUGAUUUGUAUUUAUGUCUUGAGACAGUAACUUUUUGAAUAAAAAUAAACCUACAGUAUGUUGUAUGUU: 0.193 ratio
CCUGGCAGAAGGACUGGGGUAGACAUCAAUCGUGUGUCCUGAUUUGAAGGGGGAGGGGGGCUCCUUGGGAAGAUGUCUCAGCCUGAUUUUUUGUCUCUACUCAUUUUAUACCACUGUUUG: 0.258 ratio

Block 4
SMILES: Cn1cnc2cc3c(Nc4cccc(Br)c4)ncnc3cc21
Observed: enzyme activity
Action: inhibitor
Concentration: 0.5 µM
Reference: control
Measurement: remaining activity
Cyclin-dependent kinase 1, with cyclin A (CDK1, Homo sapiens, UniProt P06493): 95.8%
MAP/microtubule affinity-regulating kinase 4 (MARK4, Homo sapiens, UniProt Q96L34): 105%
Vascular endothelial growth factor receptor 2 (KDR, Homo sapiens, UniProt P35968): 71.7%
Rho-associated protein kinase 1 (ROCK1, Homo sapiens, UniProt Q13464): 98.6%
Serine/threonine-protein kinase Nek3 (NEK3, Homo sapiens, UniProt P51956): 88.2%
Ribosomal protein S6 kinase alpha-4 (RPS6KA4, Homo sapiens, UniProt O75676): 96.3%
Serine/threonine-protein kinase DCLK2 (DCLK2, Homo sapiens, UniProt Q8N568): 92.9%
Serine/threonine-protein kinase MRCK beta (CDC42BPB, Homo sapiens, UniProt Q9Y5S2): 104%
Calcium/calmodulin-dependent protein kinase type 1B (PNCK, Homo sapiens, UniProt Q6P2M8): 101%
Hepatocyte growth factor receptor (MET, Homo sapiens, UniProt P08581): 101%
Cyclin-dependent kinase 9, with cyclin K (CDK9, Homo sapiens, UniProt P50750): 100%
Mitogen-activated protein kinase 1 (MAPK1, Homo sapiens, UniProt P28482): 94.2%
RAC-beta serine/threonine-protein kinase (AKT2, Homo sapiens, UniProt P31751): 106%

Excerpt of the above (block 2):
TGAGGGTGAGTATGGCATGTGGTGGTGGGATTGGAG: 84.5 a.u.
TTCAACGCTTTGAAACACGTGACGAAGATGCGGGTC: 6590 a.u.
ACAACAAACAAAGGCAACGTGCAAAAAACAACCATC: 155 a.u.
AAAGCGGTAATTTGCGGCGTGGGTGCAGATATCTAT: 82.3 a.u.
